# Measured values from different studies.
# Every numbered part comes from another study and shows a few of its results, in no order.
# UniProt Q9HCP0, sequence (whole entry, looked up): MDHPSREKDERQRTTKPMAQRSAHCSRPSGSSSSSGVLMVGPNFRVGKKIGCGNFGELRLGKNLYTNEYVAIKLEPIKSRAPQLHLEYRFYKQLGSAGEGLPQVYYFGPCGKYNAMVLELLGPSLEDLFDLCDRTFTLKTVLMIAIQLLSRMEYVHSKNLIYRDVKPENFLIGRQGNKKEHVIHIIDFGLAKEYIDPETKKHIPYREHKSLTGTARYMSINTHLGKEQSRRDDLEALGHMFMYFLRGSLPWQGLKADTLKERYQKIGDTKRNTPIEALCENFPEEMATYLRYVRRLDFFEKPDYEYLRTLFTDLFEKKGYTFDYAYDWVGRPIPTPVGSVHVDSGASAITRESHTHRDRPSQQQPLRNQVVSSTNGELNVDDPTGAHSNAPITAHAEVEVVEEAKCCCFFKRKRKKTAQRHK
# UniProt P37173, sequence (whole entry, looked up): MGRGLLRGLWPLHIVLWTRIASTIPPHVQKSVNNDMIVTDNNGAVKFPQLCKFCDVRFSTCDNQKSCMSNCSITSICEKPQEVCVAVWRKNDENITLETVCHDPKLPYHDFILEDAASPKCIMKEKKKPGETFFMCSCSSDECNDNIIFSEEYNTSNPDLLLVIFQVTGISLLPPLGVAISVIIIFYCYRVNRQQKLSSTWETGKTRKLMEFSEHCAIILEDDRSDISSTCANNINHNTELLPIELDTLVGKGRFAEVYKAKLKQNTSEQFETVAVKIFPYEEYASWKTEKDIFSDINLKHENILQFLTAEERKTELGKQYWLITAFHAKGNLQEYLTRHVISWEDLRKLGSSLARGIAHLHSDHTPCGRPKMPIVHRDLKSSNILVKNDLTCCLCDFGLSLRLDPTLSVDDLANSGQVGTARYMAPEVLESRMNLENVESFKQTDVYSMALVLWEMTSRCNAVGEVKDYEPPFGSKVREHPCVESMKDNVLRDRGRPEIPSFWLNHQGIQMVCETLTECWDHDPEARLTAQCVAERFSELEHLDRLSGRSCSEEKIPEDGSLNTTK
# UniProt P52564, sequence (whole entry, looked up): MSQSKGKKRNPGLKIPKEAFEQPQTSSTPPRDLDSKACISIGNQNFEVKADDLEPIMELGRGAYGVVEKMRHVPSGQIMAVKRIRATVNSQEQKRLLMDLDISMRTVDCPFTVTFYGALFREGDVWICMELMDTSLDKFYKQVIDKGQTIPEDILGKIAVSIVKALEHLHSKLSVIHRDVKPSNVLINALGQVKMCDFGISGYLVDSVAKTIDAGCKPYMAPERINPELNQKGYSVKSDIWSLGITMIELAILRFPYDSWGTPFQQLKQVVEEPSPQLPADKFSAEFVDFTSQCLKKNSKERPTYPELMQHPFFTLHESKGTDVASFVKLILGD
# UniProt Q9H2X6, sequence (whole entry, looked up): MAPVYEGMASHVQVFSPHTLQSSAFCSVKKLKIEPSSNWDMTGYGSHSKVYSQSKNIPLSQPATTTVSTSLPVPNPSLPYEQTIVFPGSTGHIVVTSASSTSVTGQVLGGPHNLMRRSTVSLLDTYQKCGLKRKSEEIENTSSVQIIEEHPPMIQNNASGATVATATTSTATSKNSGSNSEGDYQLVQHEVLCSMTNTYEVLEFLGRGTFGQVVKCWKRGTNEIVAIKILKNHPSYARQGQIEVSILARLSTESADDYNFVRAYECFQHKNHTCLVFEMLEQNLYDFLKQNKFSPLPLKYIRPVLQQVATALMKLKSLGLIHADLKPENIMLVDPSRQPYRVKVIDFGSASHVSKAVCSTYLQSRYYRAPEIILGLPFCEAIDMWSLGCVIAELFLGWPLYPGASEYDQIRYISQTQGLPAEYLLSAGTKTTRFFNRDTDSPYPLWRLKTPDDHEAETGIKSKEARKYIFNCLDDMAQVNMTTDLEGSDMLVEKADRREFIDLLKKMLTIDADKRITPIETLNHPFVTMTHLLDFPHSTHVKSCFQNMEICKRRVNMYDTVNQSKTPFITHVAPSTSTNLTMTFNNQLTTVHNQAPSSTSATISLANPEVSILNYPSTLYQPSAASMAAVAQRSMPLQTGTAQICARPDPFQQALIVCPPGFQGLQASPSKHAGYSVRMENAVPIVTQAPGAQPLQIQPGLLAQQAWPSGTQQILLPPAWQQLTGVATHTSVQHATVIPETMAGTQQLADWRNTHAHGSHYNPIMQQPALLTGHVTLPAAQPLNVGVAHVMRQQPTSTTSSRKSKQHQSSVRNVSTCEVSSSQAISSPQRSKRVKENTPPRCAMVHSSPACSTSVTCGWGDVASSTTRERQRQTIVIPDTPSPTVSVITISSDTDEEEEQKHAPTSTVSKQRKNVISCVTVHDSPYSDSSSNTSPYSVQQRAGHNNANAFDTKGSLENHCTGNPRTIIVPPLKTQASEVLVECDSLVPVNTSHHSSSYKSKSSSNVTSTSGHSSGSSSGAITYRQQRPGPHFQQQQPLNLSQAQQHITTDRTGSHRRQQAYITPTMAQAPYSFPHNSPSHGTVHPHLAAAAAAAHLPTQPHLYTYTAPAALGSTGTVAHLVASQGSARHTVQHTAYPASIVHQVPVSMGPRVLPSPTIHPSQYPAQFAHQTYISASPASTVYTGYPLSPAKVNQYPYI
# UniProt Q13164, sequence (whole entry, looked up): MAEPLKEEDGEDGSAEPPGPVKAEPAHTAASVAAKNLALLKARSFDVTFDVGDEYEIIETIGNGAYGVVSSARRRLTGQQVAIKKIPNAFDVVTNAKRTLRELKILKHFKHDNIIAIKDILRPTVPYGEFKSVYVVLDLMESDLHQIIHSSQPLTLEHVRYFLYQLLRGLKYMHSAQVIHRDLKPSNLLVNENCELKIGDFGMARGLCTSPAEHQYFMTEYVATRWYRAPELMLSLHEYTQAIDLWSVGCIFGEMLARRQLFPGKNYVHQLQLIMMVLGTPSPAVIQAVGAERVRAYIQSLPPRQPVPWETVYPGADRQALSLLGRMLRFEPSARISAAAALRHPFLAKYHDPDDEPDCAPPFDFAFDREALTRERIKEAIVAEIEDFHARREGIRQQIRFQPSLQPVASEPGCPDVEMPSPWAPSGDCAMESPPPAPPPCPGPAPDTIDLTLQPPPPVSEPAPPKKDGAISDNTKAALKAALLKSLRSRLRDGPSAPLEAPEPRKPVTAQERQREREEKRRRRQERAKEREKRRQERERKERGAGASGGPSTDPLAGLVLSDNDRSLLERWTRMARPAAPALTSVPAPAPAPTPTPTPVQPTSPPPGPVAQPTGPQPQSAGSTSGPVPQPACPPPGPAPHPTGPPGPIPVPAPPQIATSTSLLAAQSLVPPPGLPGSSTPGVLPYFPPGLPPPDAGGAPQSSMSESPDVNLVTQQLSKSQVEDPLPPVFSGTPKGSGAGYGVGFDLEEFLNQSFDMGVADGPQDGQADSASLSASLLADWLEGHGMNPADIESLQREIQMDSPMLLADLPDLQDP
# UniProt P51956, sequence (whole entry, looked up): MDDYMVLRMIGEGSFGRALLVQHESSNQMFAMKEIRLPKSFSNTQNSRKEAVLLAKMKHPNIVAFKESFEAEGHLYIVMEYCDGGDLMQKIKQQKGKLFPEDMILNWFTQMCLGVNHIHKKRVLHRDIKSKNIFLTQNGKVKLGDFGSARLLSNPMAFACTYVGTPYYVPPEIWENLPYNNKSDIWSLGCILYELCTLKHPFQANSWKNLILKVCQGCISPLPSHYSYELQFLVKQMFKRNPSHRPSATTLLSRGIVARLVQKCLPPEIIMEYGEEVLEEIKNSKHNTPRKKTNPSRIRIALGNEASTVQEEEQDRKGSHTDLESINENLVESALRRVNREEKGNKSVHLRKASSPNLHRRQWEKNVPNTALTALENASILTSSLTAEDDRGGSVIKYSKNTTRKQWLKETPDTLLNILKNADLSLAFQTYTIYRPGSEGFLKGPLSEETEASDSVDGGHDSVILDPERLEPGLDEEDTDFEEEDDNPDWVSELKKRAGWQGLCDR
# UniProt P45985, sequence (whole entry, looked up): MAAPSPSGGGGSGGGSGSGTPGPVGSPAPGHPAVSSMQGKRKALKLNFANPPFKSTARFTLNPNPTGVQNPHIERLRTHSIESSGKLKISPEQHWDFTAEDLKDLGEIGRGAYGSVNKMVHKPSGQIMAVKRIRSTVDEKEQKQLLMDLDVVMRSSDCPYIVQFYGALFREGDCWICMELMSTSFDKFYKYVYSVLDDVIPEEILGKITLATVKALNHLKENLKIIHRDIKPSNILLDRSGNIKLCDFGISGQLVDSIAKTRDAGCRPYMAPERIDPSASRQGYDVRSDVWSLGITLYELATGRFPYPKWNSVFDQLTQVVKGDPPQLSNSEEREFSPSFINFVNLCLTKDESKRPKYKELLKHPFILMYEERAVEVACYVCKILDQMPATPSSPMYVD

# Set 1 — concentration: 0.1 µM
# Structure (SMILES): CCOC(=O)c1cc2cc(-c3cc(C(=O)NCc4ccc(C(=O)O)cc4)nn3C)ccc2[nH]1
target,assay,remaining binding
"FLT3 (Homo sapiens, UniProt P36888, N841I)","cell-free assay, competition with immobilised ligand",81%
"PIK3C2G (Homo sapiens, UniProt O75747)","cell-free assay, competition with immobilised ligand",100%
"Ribosomal protein S6 kinase alpha-6, C-terminal kinase domain (RPS6KA6, Homo sapiens, UniProt Q9UK32)","cell-free assay, competition with immobilised ligand",93%
"MAPK7 (Homo sapiens, UniProt Q13164)","cell-free assay, competition with immobilised ligand",100%
"PIK3C3 (Homo sapiens, UniProt Q8NEB9)","cell-free assay, competition with immobilised ligand",80%
"NEK3 (Homo sapiens, UniProt P51956)","cell-free assay, competition with immobilised ligand",88%
"NUAK2 (Homo sapiens, UniProt Q9H093)","cell-free assay, competition with immobilised ligand",85%
"MAP2K6 (Homo sapiens, UniProt P52564)","cell-free assay, competition with immobilised ligand",100%
"TGFBR2 (Homo sapiens, UniProt P37173)","cell-free assay, competition with immobilised ligand",66%
"LTK (Homo sapiens, UniProt P29376)","cell-free assay, competition with immobilised ligand",100%
"FGFR4 (Homo sapiens, UniProt P22455)","cell-free assay, competition with immobilised ligand",68%
"CSNK1G1 (Homo sapiens, UniProt Q9HCP0)","cell-free assay, competition with immobilised ligand",100%
"TEC (Homo sapiens, UniProt P42680)","cell-free assay, competition with immobilised ligand",99%
"NTRK1 (Homo sapiens, UniProt P04629)","cell-free assay, competition with immobilised ligand",89%
"HIPK2 (Homo sapiens, UniProt Q9H2X6)","cell-free assay, competition with immobilised ligand",82%
"YES1 (Homo sapiens, UniProt P07947)","cell-free assay, competition with immobilised ligand",100%
"SNRK (Homo sapiens, UniProt Q9NRH2)","cell-free assay, competition with immobilised ligand",80%
"MAP3K19 (Homo sapiens, UniProt Q56UN5)","cell-free assay, competition with immobilised ligand",75%
"SRPK1 (Homo sapiens, UniProt Q96SB4)","cell-free assay, competition with immobilised ligand",75%
"ALK (Homo sapiens, UniProt Q9UM73)","cell-free assay, competition with immobilised ligand",98%
"FES (Homo sapiens, UniProt P07332)","cell-free assay, competition with immobilised ligand",94%
"MAP2K4 (Homo sapiens, UniProt P45985)","cell-free assay, competition with immobilised ligand",93%
"CDC42BPG (Homo sapiens, UniProt Q6DT37)",competition binding,93%
"BTK (Homo sapiens, UniProt Q06187)","cell-free assay, competition with immobilised ligand",77%
"DCLK1 (Homo sapiens, UniProt O15075)","cell-free assay, competition with immobilised ligand",86%

# Set 2 — technique: protein-binding microarray; form: double-stranded DNA, one strand shown; matrix: in vitro; concentration: 940 nM top; setting: 60-bp whole probe; together with: salmon DNA 0.4 mg/ml; reference: random background probes; reading: higher = stronger binding; all sequences stand within: GCCTAGCAC … GTCTTGATTCGCTTGACGCTGCTG
# Target: Interferon regulatory factor 5, full length, phosphomimetic (IRF5, Homo sapiens, UniProt Q13568-2, residues 1-514, S451D/S453D/S456D/S462D)
Strand,fitted relative affinity [z-score]
GACGAACAGAGTATCGAGACGTGCTAG,0.646
TTAGGACTGCTTCTACTTTAGTGCTAG,-0.0375
TTAGGCTTCCTTTTCCTTTAGTGCTAG,0.351
TTAGGTTTCGCCACTGGGTTAGTGCTA,7.07
GTAGGTCTCGGACTGGGTTAGTGCTAG,0.837
ATAGATTTCGGGTATCGATTAGTGCTA,3.88
GATGATATCAGTATCGAGACGTGCTAG,1.87
TTAGGTTTCGATTTCGGTTAGTGCTAG,12.5

# Set 3 — technique: RNAcompete; form: RNA; matrix: in vitro; concentration: 20 nM; setting: 7-mer, probes averaged, single round; reference: mean of 7-mers; reading: higher = stronger binding
# Target: PABPC1L2, full length, GST fusion (mouse, UniProt A0ABA7IW68)
# Target sequence (chain): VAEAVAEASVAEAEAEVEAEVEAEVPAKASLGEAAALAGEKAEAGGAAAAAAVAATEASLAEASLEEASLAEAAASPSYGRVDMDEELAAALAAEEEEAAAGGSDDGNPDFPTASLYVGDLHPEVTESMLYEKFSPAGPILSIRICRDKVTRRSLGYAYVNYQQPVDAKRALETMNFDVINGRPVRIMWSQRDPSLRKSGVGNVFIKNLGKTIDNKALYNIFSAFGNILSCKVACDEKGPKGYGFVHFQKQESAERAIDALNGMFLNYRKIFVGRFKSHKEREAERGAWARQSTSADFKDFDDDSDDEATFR
Strand,7-mer Z-score
AGUCCCA,-0.142
CGUCUAG,-0.402
UAUCGGG,0.137
UCUAACA,-0.177
AGUGCAA,0.131
GUAUGUC,-0.22
GAGUCAA,-0.0826
AGCAAAG,0.233

# Set 4 — technique: competition protein-binding microarray; form: double-stranded DNA, one strand shown; matrix: in vitro; concentration: 2 µM; together with: Cbf1 competitor, 0.05 µM; reading: higher = stronger binding; all sequences stand within: … GTCTTGATTCGCTTGACGCTGCTG
# Target: Phosphate system positive regulatory protein PHO4, full length, GST-tagged (PHO4, Saccharomyces cerevisiae, UniProt P07270, residues 1-312)
# Setting: whole 60-bp probe, lowest competitor level
# Target sequence (chain): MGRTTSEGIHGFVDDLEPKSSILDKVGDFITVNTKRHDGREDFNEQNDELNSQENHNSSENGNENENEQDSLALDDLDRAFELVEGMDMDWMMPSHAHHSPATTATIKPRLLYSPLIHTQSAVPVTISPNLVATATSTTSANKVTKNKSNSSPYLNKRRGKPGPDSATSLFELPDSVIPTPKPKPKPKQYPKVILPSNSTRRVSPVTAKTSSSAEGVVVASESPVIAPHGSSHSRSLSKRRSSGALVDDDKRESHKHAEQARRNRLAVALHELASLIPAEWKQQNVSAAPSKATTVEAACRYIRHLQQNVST
Strand,fluorescence intensity
GGTTGGCTCTGGTAACGCATGACAGGGTATGAAAAA,6120 a.u.
CCAAGCAGCAGTTTACGCGTGTCCAAAAAATGCTGT,8740 a.u.
ACCCTTCAAATGGCACACCTGCAGGCAGAGGCATGG,7240 a.u.
CTAACGAAGGTTTGTGCGGTGGGTGACAAGCCAAGT,4740 a.u.
GTCTTGTCTCATTGCTTCGTGGGTGTCCCCACTTCA,7470 a.u.
AACCAGTCCAAAAAGTACGTGCAATAAAAGAAGTTG,7820 a.u.
ATAACAAGAGACTGTCATGAAATTAATGTCTTACAA,3000 a.u.
GCCTTCGACAAAAAGGGCGTGCAAACTCAACAGCGG,7330 a.u.

# Set 5 — read-out: enzyme activity; action: inhibitor; concentration: 0.5 µM; reference: control
# Target: G protein-coupled receptor kinase 6 (GRK6, Homo sapiens, UniProt P43250)
# UniProt P43250, sequence (whole entry, looked up): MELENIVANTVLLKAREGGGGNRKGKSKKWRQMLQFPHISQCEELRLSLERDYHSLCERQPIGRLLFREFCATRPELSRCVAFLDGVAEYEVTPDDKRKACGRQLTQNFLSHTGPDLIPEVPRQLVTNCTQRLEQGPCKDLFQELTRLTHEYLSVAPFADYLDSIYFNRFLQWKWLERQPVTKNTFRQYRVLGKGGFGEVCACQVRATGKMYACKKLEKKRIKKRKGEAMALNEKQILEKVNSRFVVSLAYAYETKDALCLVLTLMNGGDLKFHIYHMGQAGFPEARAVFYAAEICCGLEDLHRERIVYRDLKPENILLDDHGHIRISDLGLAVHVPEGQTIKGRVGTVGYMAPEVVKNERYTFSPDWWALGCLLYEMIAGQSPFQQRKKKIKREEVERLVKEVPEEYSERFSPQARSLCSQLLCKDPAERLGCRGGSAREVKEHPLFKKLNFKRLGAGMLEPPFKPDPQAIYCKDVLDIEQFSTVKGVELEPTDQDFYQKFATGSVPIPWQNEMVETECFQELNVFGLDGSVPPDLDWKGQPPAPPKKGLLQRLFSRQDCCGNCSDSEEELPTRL
Compound,remaining activity
O=c1cc(-c2cccc3c2Sc2ccccc2S3)oc(N2CCOCC2)c1,83%
Cc1cc2ncc(-c3ccccc3)nc2cc1C,103%
CCOc1nc(NC(=O)Cc2cc(OC)ccc2OC)cc(N)c1C#N,98.9%
CCN(CC)C(=O)c1ccc(Nc2nc(OCC3CCCCC3)c3[nH]cnc3n2)cc1,99.5%

# Single results of other studies
Compound,assay,test system,conditions,quantity,result
CC(C)n1cnc(-c2ccc(F)cc2)c1-c1ncc(C(=O)Nc2ccc(N3CCN(C)CC3)cc2)[nH]1,phase 2a clinical trial,patients with idiopathic pulmonary fibrosis,30 mg once daily,patients with Infection TEAE,0%

# Some of these lines once more (set 4):
Strand,fluorescence intensity
GGTTGGCTCTGGTAACGCATGACAGGGTATGAAAAA,6120 a.u.
CTAACGAAGGTTTGTGCGGTGGGTGACAAGCCAAGT,4740 a.u.
ACCCTTCAAATGGCACACCTGCAGGCAGAGGCATGG,7240 a.u.
